{"data": "Measurements pooled from the literature", "method": "steady-state kinetics", "B1": "Ma-WS/DGAT (Marinobacter nauticus); chain MTPLNPTDQLFLWLEKRQQPMHVGGLQLFSFPEGAPDDYVAQLADQLRQKTEVTAPFNQRLSYRLGQPVWVEDEHLDLEHHFRFEALPTPGRIRELLSFVSAEHSHLMDRERPMWEVHLIEGLKDRQFALYTKVHHSLVDGVSAMRMATRMLSENPDEHGMPPIWDLPCLSRDRGESDGHSLWRSVTHLLGLSGRQLGTIPTVAKELLKTINQARKDPAYDSIFHAPRCMLNQKITGSRRFAAQSWCLKRIRAVCEAYGTTVNDVVTAMCAAALRTYLMNQDALPEKPLVAFVPVSLRRDDSSGGNQVGVILASLHTDVQEAGERLLKIHHGMEEAKQRYRHMSPEEIVNYTALTLAPAAFHLLTGLAPKWQTFNVVISNVPGPSRPLYWNGAKLEGMYPVSIDMDRLALNMTLTSYNDQVEFGLIGCRRTLPSLQRMLDYLEQGLAELELNAGL", "B2": "YeiR (Escherichia coli, UniProt P33030); chain MTRTNLITGFLGSGKTTSILHLLAHKDPNEKWAVLVNEFGEVGIDGALLADSGALLKEIPGGCMCCVNGLPMQVGLNTLLRQGKPDRLLIEPTGLGHPKQILDLLTAPVYEPWIDLRATLCILDPRLLLDEKSASNENFRDQLAAADIIVANKSDRTTPESEQALQRWWQQNGGDRQLIHSEHGKVDGHLLDLPRRNLAELPASAAHSHQHVVKKGLAALSLPEHQRWRRSLNSGQGYQACGWIFDADTVFDTIGILEWARLAPVERVKGVLRIPEGLVRINRQGDDLHIETQNVAPPDSRIELISSSEADWNALQSALLKLRLATTA", "B3": "UCK2 (Homo sapiens, UniProt Q9BZX2); chain MAGDSEQTLQNHQQPNGGEPFLIGVSGGTASGKSSVCAKIVQLLGQNEVDYRQKQVVILSQDSFYRVLTSEQKAKALKGQFNFDHPDAFDNELILKTLKEITEGKTVQIPVYDFVSHSRKEETVTVYPADVVLFEGILAFYSQEVRDLFQMKLFVDTDADTRLSRRVLRDISERGRDLEQILSQYITFVKPAFEEFCLPTKKYADVIIPRGADNLVAINLIVQHIQDILNGGPSKRQTNGCLNGYTPSRKRQASESSSRPH", "B4": "UGT1A9 (Homo sapiens, UniProt O60656); chain GKLLVVPMDGSHWFTMRSVVEKLILRGHEVVVVMPEVSWQLGRSLNCTVKTYSTSYTLEDLDREFKAFAHAQWKAQVRSIYSLLMGSYNDIFDLFFSNCRSLFKDKKLVEYLKESSFDAVFLDPFDNCGLIVAKYFSLPSVVFARGILCHYLEEGAQCPAPLSYVPRILLGFSDAMTFKERVRNHIMHLEEHLLCHRFFKNALEIASEILQTPVTEYDLYSHTSIWLLRTDFVLDYPKPVMPNMIFIGGINCHQGKPLPMEFEAYINASGEHGIVVFSLGSMVSEIPEKKAMAIADALGKIPQTVLWRYTGTRPSNLANNTILVKWLPQNDLLGHPMTRAFITHAGSHGVYESICNGVPMVMMPLFGDQMDNAKRMETKGAGVTLNVLEMTSEDLENALKAVINDKSYKENIMRLSSLHKDRPVEPLDLAVFWVEFVMRHKGAPHLRPAAHDLTWYQYHSLDVIGFLLAVVLTVAFITFKCCAYGYRKCLGKKGRVKKAHKSKTH", "B5": "cyc1 F198L (Streptomyces coelicolor, UniProt Q9K499); chain MHAFPHGTTATPTAIAVPPSLRLPVIEAAFPRQLHPYWPKLQETTRTWLLEKRLMPADKVEEYADGLCYTDLMAGYYLGAPDEVLQAIADYSAWFFVWDDRHDRDIVHGRAGAWRRLRGLLHTALDSPGDHLHHEDTLVAGFADSVRRLYAFLPATWNARFARHFHTVIEAYDREFHNRTRGIVPGVEEYLELRRLTLAHWIWTDLLEPSSGCELPDAVRKHPAYRRAALLSQEFAAWYNDLCSLPKEIAGDEVHNLGISLITHHSLTLEEAIGEVRRRVEECITEFLAVERDALRFADELADGTVRGKELSGAVRANVGNMRNWFSSVYWFHHESGRYMVDSWDDRSTPPYVNNEAAGEK", "B6": "YdjH (Escherichia coli, UniProt P77493); chain MDNLDVICIGAAIVDIPLQPVSKNIFDVDSYPLERIAMTTGGDAINEATIISRLGHRTALMSRIGKDAAGQFILDHCRKENIDIQSLKQDVSIDTSINVGLVTEDGERTFVTNRNGSLWKLNIDDVDFARFSQAKLLSLASIFNSPLLDGKALTEIFTQAKARQMIICADMIKPRLNETLDDICEALSYVDYLFPNFAEAKLLTGKETLDEIADCFLACGVKTVVIKTGKDGCFIKRGDMTMKVPAVAGITAIDTIGAGDNFASGFIAALLEGKNLRECARFANATAAISVLSVGATTGVKNRKLVEQLLEEYEG", "B7": "protein (Rheum palmatum, UniProt A0A7L9A2S6); chain MKKTELVFLPAPAPGHLVSTVEFSKRLIARDARLTVTILVISSPFSRGAQTNPSPGIRYVTLPQVDVPQHLMKDSIEHTISVYIASHAPHVRDAVAALQTESTVHVAGLFLDMFCTPMIDVANELGLPSYVFFCSSAGFLGLLLHLPVHSQPRFDETGLDVLIPSFQNPVPTRVLPRFGFNELGYKSFMDHAKRFGETKGIIINTYAELEPYALKSLLDAYDTAPVYAVGPVLDLRSQVHMPCDAAERARIMGWLDKQPDSSVVFLCFGSGGSFSEHQIREISKGLSQSGQRFLWSVRKPPTGGLVKPTEYTETELRSVLGDEFWSLLDEGERGVVCGWAPQVEVLGHKSVGAFVSHCGWNSTLESLWFGKPMVTWPLYAEQQMNAFELVKELGIAVELTLDYRLHSSEVVEAREVERAVRRVMDENNPVRYKVKEMAEVCRATLVEGGSSFVCVDRLISGFLGEIN", "B8": "IYD (Homo sapiens, UniProt Q6PHW0); chain MGEPRTRAEARPWVDEDLKDSSDLHQAEEDADEWQESEENVEHIPFSHNHYPEKEMVKRSQEFYELLNKRRSVRFISNEQVPMEVIDNVIRTAGTAPSGAHTEPWTFVVVKDPDVKHKIRKIIEEEEEINYMKRMGHRWVTDLKKLRTNWIKEYLDTAPILILIFKQVHGFAANGKKKVHYYNEISVSIACGILLAALQNAGLVTVTTTPLNCGPRLRVLLGRPAHEKLLMLLPVGYPSKEATVPDLKRKPLDQIMVTV", "note": "Numbers after ± are the reported error.", "UniProt P19337, sequence (whole entry, looked up)": "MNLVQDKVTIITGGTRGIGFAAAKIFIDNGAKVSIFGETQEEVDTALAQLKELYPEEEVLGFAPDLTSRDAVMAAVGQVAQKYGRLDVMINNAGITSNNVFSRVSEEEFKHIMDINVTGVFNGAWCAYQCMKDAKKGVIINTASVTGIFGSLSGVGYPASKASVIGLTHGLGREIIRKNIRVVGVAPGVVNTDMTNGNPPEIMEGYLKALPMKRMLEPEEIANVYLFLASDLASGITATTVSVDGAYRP", "UniProt Q04049, sequence (whole entry, looked up)": "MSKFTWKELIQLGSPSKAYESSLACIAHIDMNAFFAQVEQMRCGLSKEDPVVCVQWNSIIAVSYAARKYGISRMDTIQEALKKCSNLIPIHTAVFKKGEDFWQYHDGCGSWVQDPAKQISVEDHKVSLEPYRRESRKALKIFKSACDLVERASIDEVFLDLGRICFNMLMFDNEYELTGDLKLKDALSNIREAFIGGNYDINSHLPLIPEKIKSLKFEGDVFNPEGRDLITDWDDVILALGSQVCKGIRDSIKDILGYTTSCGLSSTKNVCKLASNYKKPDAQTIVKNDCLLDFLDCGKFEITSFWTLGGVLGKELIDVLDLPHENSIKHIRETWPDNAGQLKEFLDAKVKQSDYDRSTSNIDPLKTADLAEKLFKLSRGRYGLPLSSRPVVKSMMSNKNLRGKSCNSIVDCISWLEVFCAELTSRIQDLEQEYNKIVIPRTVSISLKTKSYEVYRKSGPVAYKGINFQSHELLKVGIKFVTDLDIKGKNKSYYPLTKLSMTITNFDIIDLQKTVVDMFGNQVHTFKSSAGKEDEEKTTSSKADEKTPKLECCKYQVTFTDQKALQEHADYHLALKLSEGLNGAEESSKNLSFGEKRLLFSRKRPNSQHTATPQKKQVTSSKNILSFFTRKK", "UniProt P0AB87, sequence (whole entry, looked up)": "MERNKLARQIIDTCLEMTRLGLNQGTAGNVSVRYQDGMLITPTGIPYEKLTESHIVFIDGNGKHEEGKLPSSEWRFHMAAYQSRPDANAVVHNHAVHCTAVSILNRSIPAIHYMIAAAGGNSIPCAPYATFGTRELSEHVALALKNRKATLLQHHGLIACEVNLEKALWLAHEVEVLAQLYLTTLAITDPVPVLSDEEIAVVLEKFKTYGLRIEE", "UniProt Q9UBT6, sequence (whole entry, looked up)": "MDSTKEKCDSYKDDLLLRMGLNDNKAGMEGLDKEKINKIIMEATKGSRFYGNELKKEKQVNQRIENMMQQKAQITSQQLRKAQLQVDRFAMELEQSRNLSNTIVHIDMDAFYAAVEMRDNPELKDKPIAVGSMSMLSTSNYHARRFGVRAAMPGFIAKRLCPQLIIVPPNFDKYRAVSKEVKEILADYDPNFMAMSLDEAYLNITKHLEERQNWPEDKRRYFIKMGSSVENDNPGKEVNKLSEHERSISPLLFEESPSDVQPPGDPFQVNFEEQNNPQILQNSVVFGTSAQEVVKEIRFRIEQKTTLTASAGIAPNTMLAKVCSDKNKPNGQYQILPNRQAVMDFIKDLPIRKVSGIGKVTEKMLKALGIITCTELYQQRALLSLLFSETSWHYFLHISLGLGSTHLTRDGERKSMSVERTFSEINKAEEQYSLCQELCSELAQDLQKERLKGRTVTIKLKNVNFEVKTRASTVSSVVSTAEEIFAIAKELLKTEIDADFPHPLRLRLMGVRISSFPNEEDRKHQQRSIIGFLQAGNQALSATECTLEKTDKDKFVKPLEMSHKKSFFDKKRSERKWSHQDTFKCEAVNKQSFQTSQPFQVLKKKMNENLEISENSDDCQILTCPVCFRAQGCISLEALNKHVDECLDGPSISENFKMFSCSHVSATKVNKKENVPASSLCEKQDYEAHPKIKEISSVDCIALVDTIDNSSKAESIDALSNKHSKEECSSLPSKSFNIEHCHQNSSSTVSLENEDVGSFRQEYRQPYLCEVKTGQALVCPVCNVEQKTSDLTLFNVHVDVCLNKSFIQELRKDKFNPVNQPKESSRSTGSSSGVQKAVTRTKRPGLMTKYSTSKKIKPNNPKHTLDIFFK"}
{"Molecule": "POLK (Homo sapiens, UniProt Q9UBT6)", "substrate": "Nc1ncnc2c1ncn2[C@H]1C[C@H](O)[C@@H](COP(=O)(O)OP(=O)(O)OP(=O)(O)O)O1", "pH": "pH 7.5", "temperature": "23 °C", "notes": "MgCl2 5 mM", "added": "8-oxoG template", "measurement": "kcat/Km", "value": "7100 M⁻¹ s⁻¹"}
{"Molecule": "α-amino ester hydrolase (Xanthomonas campestris, UniProt Q8P8K4)", "substrate": "COC(=O)[C@H](N)c1ccccc1", "pH": "pH 7", "temperature": "25 °C", "notes": "phosphate 100 mM", "measurement": "kcat/Km", "value": "265000 M⁻¹ s⁻¹"}
{"Molecule": "B1 (Ma-WS/DGAT)", "substrate": "CCCCCC(=O)SCCNC(=O)CCNC(=O)[C@H](O)C(C)(C)COP(=O)(O)OP(=O)(O)OC[C@H]1O[C@@H](n2cnc3c(N)ncnc32)[C@H](O)[C@@H]1OP(=O)(O)O", "pH": "pH 7.5", "temperature": "25 °C", "notes": "NaCl 300 mM, lower limit, not saturable, apparent", "added": "1-hexanol 4 mM", "measurement": "kcat/Km", "value": "1860 ± 70 M⁻¹ s⁻¹"}
{"Molecule": "RAD30 (Saccharomyces cerevisiae, UniProt Q04049)", "substrate": "Nc1nc2c(ncn2[C@H]2C[C@H](O)[C@@H](COP(=O)(O)OP(=O)(O)OP(=O)(O)O)O2)c(=O)[nH]1", "pH": "pH 7.5", "notes": "apparent Km, opposite dT, undamaged template, apparent", "added": "MgCl2 10 mM", "measurement": "kcat/Km", "value": "23.3 M⁻¹ s⁻¹"}
{"Molecule": "fucA (Escherichia coli, UniProt P0AB87)", "substrate": "C[C@@H](O)[C@@H](O)C(=O)COP(=O)(O)O", "pH": "pH 7.8", "temperature": "30 °C", "measurement": "kcat/Km", "value": "3900 M⁻¹ s⁻¹"}
{"Molecule": "alanine aminopeptidase (Neisseria meningitidis, UniProt Q9JYV4)", "substrate": "NC(=O)Cc1cc(=O)oc2cc(NC(=O)[C@@H](N)Cc3ccc(Cl)cc3)ccc12", "pH": "pH 7.5", "temperature": "37 °C", "measurement": "kcat/Km", "value": "34000 ± 1000 M⁻¹ s⁻¹"}
{"Molecule": "B2 (YeiR)", "substrate": "Nc1nc2c(ncn2[C@@H]2O[C@H](COP(=O)(O)OP(=O)(O)OP(=O)(O)O)[C@@H](O)[C@H]2O)c(=O)[nH]1", "pH": "pH 7.5", "temperature": "37 °C", "notes": "apo, anaerobic", "measurement": "kcat/Km", "value": "14 ± 6 M⁻¹ s⁻¹"}
{"Molecule": "B3 (UCK2)", "substrate": "O=c1ccn([C@@H]2O[C@H](CO)[C@@H](O)[C@H]2O)c(=O)[nH]1", "pH": "pH 7.2", "temperature": "25 °C", "notes": "KCl 100 mM", "added": "ATP 100–200 µM", "measurement": "kcat/Km", "value": "90000 M⁻¹ s⁻¹"}
{"Molecule": "B4 (UGT1A9)", "substrate": "COc1cc(-c2cc(=O)c3c(O)cc(O)cc3o2)ccc1O", "pH": "pH 7.4", "temperature": "37 °C", "measurement": "Km", "value": "0.91 µM"}
{"Molecule": "B5 (cyc1 F198L)", "substrate": "CC(C)=CCC/C(C)=C/CC/C(C)=C/CO[P@@](=O)(O)OP(=O)(O)O", "pH": "pH 6.5", "temperature": "30 °C", "added": "MgCl2 10 mM", "measurement": "kcat/Km", "value": "1100 ± 100 M⁻¹ s⁻¹"}
{"Molecule": "B6 (YdjH)", "substrate": "O=C(CO)[C@@H](O)[C@H](O)[C@H](O)[C@@H](O)CO", "pH": "pH 7.4", "temperature": "30 °C", "notes": "KCl 100 mM", "added": "ATP 2.0 mM, MgCl2 5.0 mM", "measurement": "kcat/Km", "value": "24.4 ± 0.8 M⁻¹ s⁻¹"}
{"Molecule": "B7 (protein)", "substrate": "COc1cc(-c2oc3cc(O)cc(O)c3c(=O)c2O)ccc1O", "pH": "pH 7.5", "temperature": "35 °C", "notes": "apparent", "added": "UDP-glucose", "measurement": "kcat/Km", "value": "7.85 M⁻¹ s⁻¹"}
{"Molecule": "B8 (IYD)", "substrate": "N#Cc1cc(C[C@H](N)C(=O)O)cc(I)c1O", "pH": "pH 7.4", "temperature": "25 °C", "added": "sodium dithionite 0.5%", "measurement": "kcat/Km", "value": "700 ± 200 M⁻¹ s⁻¹"}
{"Molecule": "BaiA2 (Clostridium scindens, UniProt P19337)", "substrate": "C[C@H](CCC(=O)SCCNC(=O)CCNC(=O)[C@H](O)C(C)(C)COP(=O)(O)OP(=O)(O)OC[C@H]1O[C@@H](n2cnc3c(N)ncnc32)[C@H](O)[C@@H]1OP(=O)(O)O)[C@H]1CC[C@H]2[C@@H]3CC[C@@H]4C[C@H](O)CC[C@]4(C)[C@H]3C[C@H](O)[C@]12C", "pH": "pH 8.7", "temperature": "37 °C", "added": "NAD+", "measurement": "kcat/Km", "value": "9320 M⁻¹ s⁻¹"}
{"Molecule": "Ptb (Listeria monocytogenes, UniProt Q8Y7B7)", "substrate": "CCC(CC)C(=O)SCCNC(=O)CCNC(=O)[C@H](O)C(C)(C)COP(=O)(O)OP(=O)(O)OC[C@H]1O[C@@H](n2cnc3c(N)ncnc32)[C@H](O)[C@@H]1OP(=O)(O)O", "pH": "pH 7.5", "temperature": "25 °C", "notes": "apparent", "measurement": "kcat/Km", "value": "2.3e+06 M⁻¹ s⁻¹"}
{"note": "For quick reference, copied from above:"}
{"Molecule": "alanine aminopeptidase (Neisseria meningitidis, UniProt Q9JYV4)", "substrate": "NC(=O)Cc1cc(=O)oc2cc(NC(=O)[C@@H](N)Cc3ccc(Cl)cc3)ccc12", "pH": "pH 7.5", "temperature": "37 °C", "measurement": "kcat/Km", "value": "34000 ± 1000 M⁻¹ s⁻¹"}
{"Molecule": "B2 (YeiR)", "substrate": "Nc1nc2c(ncn2[C@@H]2O[C@H](COP(=O)(O)OP(=O)(O)OP(=O)(O)O)[C@@H](O)[C@H]2O)c(=O)[nH]1", "pH": "pH 7.5", "temperature": "37 °C", "notes": "apo, anaerobic", "measurement": "kcat/Km", "value": "14 ± 6 M⁻¹ s⁻¹"}
